Assay results collected from several papers.
A part holds a random share of what one study measured.

Series 1 — method: universal PBM; molecule type: double-stranded DNA, one strand shown; medium: in vitro; tested at: not given; direction: higher = stronger binding
Target: Sal-like protein 4, full length isoform B (SALL4, Homo sapiens, UniProt Q9UJQ4-2, residues 1-616)
Setting: 8-mer, flanks averaged, mean of replicates
Residues (chain): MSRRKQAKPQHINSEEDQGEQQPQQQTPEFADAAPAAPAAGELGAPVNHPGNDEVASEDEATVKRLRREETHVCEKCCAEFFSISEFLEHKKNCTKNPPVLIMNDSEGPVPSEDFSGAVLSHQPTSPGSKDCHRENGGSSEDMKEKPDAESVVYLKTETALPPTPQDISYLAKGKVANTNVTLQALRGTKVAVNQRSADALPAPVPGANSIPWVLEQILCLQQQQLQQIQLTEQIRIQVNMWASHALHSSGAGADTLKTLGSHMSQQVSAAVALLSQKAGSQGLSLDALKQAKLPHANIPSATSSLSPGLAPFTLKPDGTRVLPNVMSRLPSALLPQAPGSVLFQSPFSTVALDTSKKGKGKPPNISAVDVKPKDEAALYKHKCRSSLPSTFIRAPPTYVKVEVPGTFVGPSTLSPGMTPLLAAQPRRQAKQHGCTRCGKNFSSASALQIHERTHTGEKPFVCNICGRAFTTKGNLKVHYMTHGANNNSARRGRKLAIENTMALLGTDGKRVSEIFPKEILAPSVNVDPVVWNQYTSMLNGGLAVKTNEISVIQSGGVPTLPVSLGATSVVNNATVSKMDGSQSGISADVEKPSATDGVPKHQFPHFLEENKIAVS
`CAAAAGAA` has an E-score of 0.21.
The E-score of `ATGTTGTG` is reported as 0.19.
For `GGGTAAAA`, the E-score was 0.0738.
With `GGTTACTA` the E-score was -0.00671.
`AAAGTTTC` has an E-score of 0.106.
`GACGTATC` gave an E-score of 0.0115.
`CCTGTGCA` gave an E-score of -0.089.
For `CCGGTAGC`, the E-score was -0.316.

Series 2 — method: protein-binding microarray; molecule type: double-stranded DNA, one strand shown; medium: in vitro; tested at: 0.8 µM; setting: whole 60-bp probe, no competitor; direction: higher = stronger binding; constant ends, left off below: … GTCTTGATTCGCTTGACGCTGCTG
Target: Centromere-binding protein 1, full length, N-terminal tag (CBF1, Saccharomyces cerevisiae, UniProt P17106, residues 1-351)
UniProt P17106, sequence (whole entry, looked up): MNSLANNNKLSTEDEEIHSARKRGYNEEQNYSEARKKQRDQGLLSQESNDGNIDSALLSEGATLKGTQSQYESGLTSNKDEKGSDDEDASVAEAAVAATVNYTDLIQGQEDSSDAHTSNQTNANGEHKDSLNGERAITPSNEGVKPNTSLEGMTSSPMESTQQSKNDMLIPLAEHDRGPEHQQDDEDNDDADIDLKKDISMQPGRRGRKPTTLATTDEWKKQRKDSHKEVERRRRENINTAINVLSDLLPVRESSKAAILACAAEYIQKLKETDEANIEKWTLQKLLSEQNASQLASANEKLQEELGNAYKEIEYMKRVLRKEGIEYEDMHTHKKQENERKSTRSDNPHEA
With `GAATAGAGATGAGCCGTCACCATGAATATAGCGTAG` the fluorescence intensity was 531 a.u.
The fluorescence intensity of `CTAAGAAAAATGGCTGATGTAGTTGAAAAAGGTTTC` is reported as 517 a.u.
With `GAATGTGCTCGTATTCTGGTGGTCATTAGACACTAG` the fluorescence intensity was 589 a.u.
`CTATTTTATTGTATGCTCGTGCCCGTTTTTTCTTTC` gave a fluorescence intensity of 930 a.u.
For `TGTACGAAGCTATAGCATGTGATTATAGTAGTTAGG`, the fluorescence intensity was 2010 a.u.
`TGTACGAAGCTATGATAGGTGATTATAGTAGTTAGG` gave a fluorescence intensity of 488 a.u.
For `CTACGGTTAATTGAAAACGTGGAAAAGTATCGATTC`, the fluorescence intensity was 575 a.u.
`CTAAGGATTGACAGTGATGTAATAATGAACGAGTTC` has a fluorescence intensity of 497 a.u.

Further values, each from its own experiment
For CN[C@@H]1[C@H](O)[C@H](NC)[C@H]2O[C@@]3(O)C(=O)C[C@@H](C)O[C@H]3O[C@@H]2[C@H]1O, the viability was 103% (Huh-7; 10 µM, 24 h).
The fold induction of `PhoQ, residues 284 288 289 292 302 303 TASMAF` is reported as 19 (PhoP, residues 12 14 15 18 19 GHCSL (Escherichia coli, UniProt P23836); Sort-seq, item: YFP reporter; E. coli; PhoQ-PhoP variant library, with: 10 µM Mg2+; reference: high Mg2+ state, higher = stronger signaling).
